Published values pooled from the literature.
Compare with care: the assays were run in different laboratories.
FLT3: Receptor-type tyrosine-protein kinase FLT3 (FLT3, Homo sapiens, UniProt P36888)
FLT3 R834Q: Receptor-type tyrosine-protein kinase FLT3 (FLT3, Homo sapiens, UniProt P36888, R834Q)
FLT3 D835Y: Receptor-type tyrosine-protein kinase FLT3 (FLT3, Homo sapiens, UniProt P36888, D835Y)
FLT3 K663Q: Receptor-type tyrosine-protein kinase FLT3 (FLT3, Homo sapiens, UniProt P36888, K663Q)

Compound	target	test	conditions	scale	remaining binding [%]
COc1cc(Nc2nccc(-c3cnn4nc(OC)ccc34)n2)cc(C(F)(F)F)c1	FLT3	binding, competition with immobilised ligand	1 µM		55
C=CC(=O)N1CCCC(n2c(=O)c3ncccc3n(Cc3ccc(Oc4ccccc4)cc3)c2=O)C1 (stereo not shown)	FLT3 R834Q	cell-free assay, competition with immobilised ligand	1 µM		77
CCN1CCN(Cc2ccc(C(=O)Nc3ccc(C)c(NCc4cnc5[nH]ccc5c4OC)c3)cc2C(F)(F)F)CC1	FLT3 D835Y	binding, competition with immobilised ligand	1 µM		17
C=C1CCCCCCCCCC(CO)C1=O (stereo not shown)	FLT3	cell-free assay, competition with immobilised ligand	10 µM		99
Cc1ccc(-c2c(/C=C(\C#N)C(=O)NC(C)C)n(CCCO)c3ncnc(N)c23)cc1	FLT3 K663Q	cell-free assay, competition with immobilised ligand	1 µM		70
COc1c(Cl)cccc1Nc1c(-c2ccncc2C#C[C@@]2(C)CCCN2C(=O)/C=C/CN(C)C)[nH]c2c1C(=O)NCC2	FLT3 R834Q	binding, competition with immobilised ligand	3 µM		86
CC(C)=CC1OC(C)(C)C2C=C3C(=O)C(Cl)=CC(O)C3C3C(O)C4OC4C(=O)C132 (stereo not shown)	FLT3 (Homo sapiens, UniProt P36888, ITD)	cell-free assay, competition with immobilised ligand	10 µM		83
CNC(=O)C1CCN(c2cc(C)c(F)cc2NC(=O)c2ccc(-c3cc(O)ccc3C)c(C)c2)CC1	FLT3 (Homo sapiens, UniProt P36888, N841I)	binding, competition with immobilised ligand	1 µM		100
CNC1C[S+]2CC[S+]3CC[S+](C1)[Ru-4]321([N]=C=S)[n]2c3ccc(OC)cc3c3c4c(c5cc(F)c[n+]1c5c32)C(=O)NC4=O (stereo not shown)	Receptor-type tyrosine-protein kinase FLT3, autoinhibited (FLT3, Homo sapiens, UniProt P36888)	KinomeScan	0.1 µM	relative to: untreated	100
CNS(=O)(=O)Nc1nccc(Cc2c(C)c3ccc(Oc4ncccc4F)cc3oc2=O)c1F	FLT3	binding, competition with immobilised ligand	10 µM		100
COc1ccc(NC(=O)Nc2ccc3c(c2)C(=O)N(C(C)CO)CC(C)C(CN(C)Cc2ccc4c(c2)OCO4)O3)cc1 (stereo not shown)	FLT3	binding, competition with immobilised ligand	10 µM		65
C=CC(=O)N1CCc2ccc(-n3c(=O)ccc4cnc5ccc(-c6cnn(C)c6)cc5c43)cc21	FLT3	KINOMEscan	1 µM	relative to: DMSO control	98
CCN1CCN(Cc2ccc(NC(=O)c3ccc(C)c(NC(=O)c4cncc(-c5cccs5)c4)c3)cc2C(F)(F)F)CC1	FLT3 D835Y	binding, competition with immobilised ligand	1 µM		15
Nc1ncc2c(n1)-c1c([nH]c3ccc(C4=CCOCC4)cc13)CCC2	FLT3 R834Q	binding, competition with immobilised ligand	1 µM		100
CN1CCN(Cc2ccc(NC(=O)c3cccc(C#Cc4cnc(N)c5ncccc45)c3)cc2C(F)(F)F)CC1	FLT3	cell-free assay, competition with immobilised ligand	0.5 µM		0.2
Cc1cnc2nc1Nc1cccc(c1)COC/C=C/COCc1cc(ccc1OCCN1CCOCC1)N2	FLT3 K663Q	binding	0.1 µM		1

Some of these lines once more:
Compound	target	test	conditions	scale	remaining binding [%]
CNC(=O)C1CCN(c2cc(C)c(F)cc2NC(=O)c2ccc(-c3cc(O)ccc3C)c(C)c2)CC1	FLT3 (Homo sapiens, UniProt P36888, N841I)	binding, competition with immobilised ligand	1 µM		100
CC(C)=CC1OC(C)(C)C2C=C3C(=O)C(Cl)=CC(O)C3C3C(O)C4OC4C(=O)C132 (stereo not shown)	FLT3 (Homo sapiens, UniProt P36888, ITD)	cell-free assay, competition with immobilised ligand	10 µM		83
CNS(=O)(=O)Nc1nccc(Cc2c(C)c3ccc(Oc4ncccc4F)cc3oc2=O)c1F	FLT3	binding, competition with immobilised ligand	10 µM		100
